Assay results gathered from unrelated publications.
Each numbered part is a random draw from the data of one study; scales do not carry over between parts.
UniProt P78368, sequence (whole entry, looked up): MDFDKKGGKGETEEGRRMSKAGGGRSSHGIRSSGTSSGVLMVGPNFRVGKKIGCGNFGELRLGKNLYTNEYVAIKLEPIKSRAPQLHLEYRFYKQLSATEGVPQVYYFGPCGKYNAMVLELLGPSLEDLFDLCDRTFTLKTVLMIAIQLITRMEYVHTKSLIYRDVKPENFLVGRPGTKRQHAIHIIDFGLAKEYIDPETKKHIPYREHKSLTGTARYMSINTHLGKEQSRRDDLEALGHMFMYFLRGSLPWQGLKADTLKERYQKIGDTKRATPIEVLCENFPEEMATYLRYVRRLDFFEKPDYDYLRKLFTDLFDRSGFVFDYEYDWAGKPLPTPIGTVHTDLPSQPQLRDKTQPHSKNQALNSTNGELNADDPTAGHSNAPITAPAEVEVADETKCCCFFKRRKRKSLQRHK
UniProt P53667, sequence (whole entry, looked up): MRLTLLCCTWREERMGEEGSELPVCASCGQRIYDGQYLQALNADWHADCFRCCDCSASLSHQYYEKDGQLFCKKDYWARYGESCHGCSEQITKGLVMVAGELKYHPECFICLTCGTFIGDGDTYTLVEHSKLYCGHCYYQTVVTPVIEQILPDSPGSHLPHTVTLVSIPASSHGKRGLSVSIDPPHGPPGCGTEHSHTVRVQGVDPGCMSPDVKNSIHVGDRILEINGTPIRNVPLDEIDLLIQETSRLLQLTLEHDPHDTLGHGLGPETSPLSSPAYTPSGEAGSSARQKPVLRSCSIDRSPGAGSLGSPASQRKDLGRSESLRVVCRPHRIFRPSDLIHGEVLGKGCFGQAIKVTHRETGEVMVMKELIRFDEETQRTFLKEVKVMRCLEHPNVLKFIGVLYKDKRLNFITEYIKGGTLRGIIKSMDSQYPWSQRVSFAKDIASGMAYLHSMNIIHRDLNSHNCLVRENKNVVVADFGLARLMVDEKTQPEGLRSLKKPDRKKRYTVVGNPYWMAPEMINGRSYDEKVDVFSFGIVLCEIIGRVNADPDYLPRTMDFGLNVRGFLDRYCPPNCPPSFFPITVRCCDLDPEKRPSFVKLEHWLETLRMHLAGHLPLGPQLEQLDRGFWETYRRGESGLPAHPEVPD
UniProt O43683, sequence (whole entry, looked up): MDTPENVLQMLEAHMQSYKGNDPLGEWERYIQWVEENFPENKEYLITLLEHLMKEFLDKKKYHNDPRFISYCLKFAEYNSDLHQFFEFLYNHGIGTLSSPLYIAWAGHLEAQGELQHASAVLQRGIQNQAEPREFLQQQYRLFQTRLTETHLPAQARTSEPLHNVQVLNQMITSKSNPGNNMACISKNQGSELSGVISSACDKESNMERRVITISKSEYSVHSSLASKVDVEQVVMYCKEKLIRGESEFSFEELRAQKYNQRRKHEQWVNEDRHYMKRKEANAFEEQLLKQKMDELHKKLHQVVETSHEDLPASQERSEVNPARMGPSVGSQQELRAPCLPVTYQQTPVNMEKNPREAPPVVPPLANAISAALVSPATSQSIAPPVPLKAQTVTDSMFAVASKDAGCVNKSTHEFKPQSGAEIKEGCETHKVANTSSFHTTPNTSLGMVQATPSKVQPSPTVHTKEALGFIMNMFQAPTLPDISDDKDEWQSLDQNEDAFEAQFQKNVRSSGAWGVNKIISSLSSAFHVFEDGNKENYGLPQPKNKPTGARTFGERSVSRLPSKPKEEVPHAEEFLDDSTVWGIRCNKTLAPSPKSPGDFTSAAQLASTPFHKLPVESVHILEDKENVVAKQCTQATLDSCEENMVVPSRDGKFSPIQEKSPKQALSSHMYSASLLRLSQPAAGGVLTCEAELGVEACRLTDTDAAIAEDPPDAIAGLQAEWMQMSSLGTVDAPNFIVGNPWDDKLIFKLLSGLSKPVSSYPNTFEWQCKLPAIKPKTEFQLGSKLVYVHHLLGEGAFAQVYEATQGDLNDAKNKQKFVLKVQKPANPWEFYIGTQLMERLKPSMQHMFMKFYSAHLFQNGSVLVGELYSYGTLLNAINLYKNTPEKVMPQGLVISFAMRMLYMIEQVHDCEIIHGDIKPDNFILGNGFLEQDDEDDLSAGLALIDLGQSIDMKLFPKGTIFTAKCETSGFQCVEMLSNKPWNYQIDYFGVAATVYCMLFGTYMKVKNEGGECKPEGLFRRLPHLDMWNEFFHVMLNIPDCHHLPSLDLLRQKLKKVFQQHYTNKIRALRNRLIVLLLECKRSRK
UniProt P50750, sequence (whole entry, looked up): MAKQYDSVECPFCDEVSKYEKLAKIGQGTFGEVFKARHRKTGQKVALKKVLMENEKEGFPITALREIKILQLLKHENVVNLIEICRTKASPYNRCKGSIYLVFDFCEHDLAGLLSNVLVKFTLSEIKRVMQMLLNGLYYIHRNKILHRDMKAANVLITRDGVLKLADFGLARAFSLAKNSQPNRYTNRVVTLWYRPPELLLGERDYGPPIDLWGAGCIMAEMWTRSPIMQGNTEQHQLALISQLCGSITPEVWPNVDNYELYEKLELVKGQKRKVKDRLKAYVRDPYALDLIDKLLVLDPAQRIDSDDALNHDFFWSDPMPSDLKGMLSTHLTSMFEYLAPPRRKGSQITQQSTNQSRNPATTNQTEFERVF
UniProt Q06418, sequence (whole entry, looked up): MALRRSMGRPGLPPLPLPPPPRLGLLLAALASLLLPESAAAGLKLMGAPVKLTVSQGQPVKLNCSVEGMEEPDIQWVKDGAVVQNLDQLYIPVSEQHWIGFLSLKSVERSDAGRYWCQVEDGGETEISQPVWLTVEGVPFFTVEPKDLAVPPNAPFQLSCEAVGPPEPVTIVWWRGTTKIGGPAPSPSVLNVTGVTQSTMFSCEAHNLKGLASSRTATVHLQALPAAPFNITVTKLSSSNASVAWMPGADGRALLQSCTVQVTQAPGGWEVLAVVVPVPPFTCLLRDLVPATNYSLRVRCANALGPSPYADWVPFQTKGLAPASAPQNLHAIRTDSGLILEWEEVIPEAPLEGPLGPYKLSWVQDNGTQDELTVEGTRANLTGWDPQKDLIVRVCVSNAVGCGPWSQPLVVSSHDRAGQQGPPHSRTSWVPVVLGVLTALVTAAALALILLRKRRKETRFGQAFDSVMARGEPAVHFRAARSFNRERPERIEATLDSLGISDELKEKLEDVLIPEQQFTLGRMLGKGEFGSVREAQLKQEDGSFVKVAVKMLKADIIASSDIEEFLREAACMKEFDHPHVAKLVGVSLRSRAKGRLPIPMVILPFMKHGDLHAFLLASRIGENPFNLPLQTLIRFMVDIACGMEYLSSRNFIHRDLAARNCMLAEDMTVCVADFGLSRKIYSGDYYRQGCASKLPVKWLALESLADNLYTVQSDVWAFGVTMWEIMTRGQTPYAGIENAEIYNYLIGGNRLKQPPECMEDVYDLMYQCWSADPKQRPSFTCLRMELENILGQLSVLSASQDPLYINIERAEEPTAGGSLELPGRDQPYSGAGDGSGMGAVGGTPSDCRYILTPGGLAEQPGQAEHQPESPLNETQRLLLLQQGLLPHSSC

Series 1
Target: Transcription factor Sp1 (SP1, Homo sapiens, UniProt P08047, residues 1-785, full length assumed)
UniProt P08047, sequence (whole entry, looked up): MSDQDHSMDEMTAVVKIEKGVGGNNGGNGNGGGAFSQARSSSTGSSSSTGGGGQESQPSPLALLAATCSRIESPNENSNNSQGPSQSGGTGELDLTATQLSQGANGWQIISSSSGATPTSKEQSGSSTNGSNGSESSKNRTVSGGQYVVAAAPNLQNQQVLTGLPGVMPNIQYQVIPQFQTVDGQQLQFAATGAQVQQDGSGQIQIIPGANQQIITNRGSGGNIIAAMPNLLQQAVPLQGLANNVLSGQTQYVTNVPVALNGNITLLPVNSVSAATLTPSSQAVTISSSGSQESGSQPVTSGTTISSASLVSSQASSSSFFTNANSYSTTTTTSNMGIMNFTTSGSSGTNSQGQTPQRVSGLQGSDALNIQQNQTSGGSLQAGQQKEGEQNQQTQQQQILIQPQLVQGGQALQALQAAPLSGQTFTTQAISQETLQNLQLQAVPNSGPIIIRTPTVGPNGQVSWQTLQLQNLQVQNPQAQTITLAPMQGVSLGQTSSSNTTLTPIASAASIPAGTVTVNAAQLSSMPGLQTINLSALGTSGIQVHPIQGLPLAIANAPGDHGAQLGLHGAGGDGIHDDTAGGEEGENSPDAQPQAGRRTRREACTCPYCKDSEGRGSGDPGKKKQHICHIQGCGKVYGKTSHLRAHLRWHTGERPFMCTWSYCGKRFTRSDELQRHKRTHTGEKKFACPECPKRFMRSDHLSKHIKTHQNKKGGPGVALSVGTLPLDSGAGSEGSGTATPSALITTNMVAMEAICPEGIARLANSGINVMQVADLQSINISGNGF
Technique: protein-binding microarray
Molecule type: double-stranded DNA, one strand shown
Matrix: in vitro
Tested at: not given
Notes: k-mer, scored over probes, only values ≥0.25
Direction: higher = stronger binding
| Strand | E-score |
| --- | --- |
| GGGCGGGA | 0.483 |
| AGTGTATA | 0.269 |
| GCCACGCC | 0.315 |
| CCCGTCCC | 0.286 |
| CCCACCCG | 0.423 |
| GTTTCGTA | 0.272 |
| CCACGTTA | 0.265 |
| CCCATACC | 0.306 |

Series 2
SMILES: COc1cc(-c2cn(C3CCc4ccccc4N(CC(F)(F)F)C3=O)nn2)ccc1-n1ccc(C)n1 (stereo not drawn)
Read-out: cell-free assay
Technique: competition with immobilised ligand
Tested at: 1 µM
| target | remaining binding [%] |
| --- | --- |
| TYRO3 (Homo sapiens, UniProt Q06418) | 100 |
| CDK9 (Homo sapiens, UniProt P50750) | 100 |
| BUB1 (Homo sapiens, UniProt O43683) | 94 |
| LIM domain kinase 1 (LIMK1, Homo sapiens, UniProt P53667) | 100 |
| CSNK1G2 (Homo sapiens, UniProt P78368) | 100 |
| Tyrosine-protein kinase ABL1, non-phosphorylated (ABL1, Homo sapiens, UniProt P00519, T315I) | 77 |
| PI4KB (Homo sapiens, UniProt Q9UBF8) | 87 |

Series 3
Target: Casein kinase I isoform gamma-1 (CSNK1G1, Homo sapiens, UniProt Q9HCP0)
UniProt Q9HCP0, sequence (whole entry, looked up): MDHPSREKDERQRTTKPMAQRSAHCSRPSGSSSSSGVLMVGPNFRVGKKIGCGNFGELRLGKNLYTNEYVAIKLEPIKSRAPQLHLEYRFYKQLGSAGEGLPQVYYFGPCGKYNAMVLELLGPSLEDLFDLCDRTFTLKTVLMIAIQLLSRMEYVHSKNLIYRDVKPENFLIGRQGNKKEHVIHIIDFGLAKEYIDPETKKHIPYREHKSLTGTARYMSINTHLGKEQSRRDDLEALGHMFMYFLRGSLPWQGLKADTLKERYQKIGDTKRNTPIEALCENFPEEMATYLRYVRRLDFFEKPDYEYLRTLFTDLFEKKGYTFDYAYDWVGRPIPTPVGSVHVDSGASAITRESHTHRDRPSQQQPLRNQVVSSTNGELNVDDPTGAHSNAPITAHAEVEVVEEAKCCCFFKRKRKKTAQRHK
Read-out: enzyme activity
Mode: inhibitor
Tested at: 0.5 µM
Relative to: control
| SMILES | remaining activity [%] |
| --- | --- |
| O=c1c2ccccc2[nH]c(=S)n1CCN1CCC(=C(c2ccc(F)cc2)c2ccc(F)cc2)CC1 | 92.5 |
| COc1cc2nccc(Oc3ccc(NC(=S)NC(=O)c4ccccc4C)cc3)c2cc1OC | 80.1 |
| COc1ccc(C(=O)Nc2sc3c(c2C(N)=O)CCCC3)cc1OC | 90.1 |
| CNC(=O)c1cc(Oc2ccc(NC(=O)Nc3ccc(Cl)c(C(F)(F)F)c3)cc2)ccn1 | 102 |
| CCOC(=O)c1c(C)[nH]c(/C=C2\C(=O)Nc3ccccc32)c1C | 103 |
| OCC(O)CCON=C1C(c2c(O)[nH]c3ccccc23)=Nc2ccccc21 (stereo not drawn) | 89.2 |
| O=C(CCCc1ccc(-c2ccccc2F)cc1)Nc1ccc(O)cc1 | 104 |
| COc1cc2ncnc(Nc3ccc(Oc4ccccc4)cc3)c2cc1OC | 90 |
| O=C(O)c1ccc2c3c1cccc3c(=O)n1c3ccccc3nc21 | 99.5 |
| Cc1ccc(Nc2nccc(N(C)c3ccc4c(C)n(C)nc4c3)n2)cc1S(N)(=O)=O | 100 |
| O=C1NC(=O)C(c2cn(CCCO)c3ncccc23)=C1c1cnccn1 | 101 |
| N#CC(C#N)=C(N)/C(C#N)=C/c1ccc(O)cc1 | 93.4 |
| Nc1[nH]nc2nc3ccccc3nc12 | 99 |
| Cc1ccc(NC(=O)c2ccc(CN3CCN(C)CC3)cc2)cc1Nc1nc(-c2cccnc2)cs1 | 92.4 |

Mixed results
Technique: cross-linking MS
| Molecule | partner | matrix | notes | together with | endpoint | value |
| --- | --- | --- | --- | --- | --- | --- |
| PPIB (Homo sapiens, UniProt P23284) | UTRN (Homo sapiens, UniProt P46939) | cell fractions | – | DHSO | cross-linked residues | D74 to E1493 |
| MCM5 (Homo sapiens, UniProt P33992) | MCM2 (Homo sapiens, UniProt P49736) | cell fractions | – | DMTMM | cross-linked residues | K228 to E568 |
| SNRPB2 (Homo sapiens, UniProt P08579) | SNRPD3 (Homo sapiens, UniProt P62318) | cell fractions | – | DMTMM | cross-linked residues | K111 to E14 |
| H2AC11 (Homo sapiens, UniProt P0C0S8) | H1-4 (Homo sapiens, UniProt P10412) | – | hits only | – | interaction screen | cross-linked |

Repeated from above (series 3):
| SMILES | remaining activity [%] |
| --- | --- |
| CCOC(=O)c1c(C)[nH]c(/C=C2\C(=O)Nc3ccccc32)c1C | 103 |
| OCC(O)CCON=C1C(c2c(O)[nH]c3ccccc23)=Nc2ccccc21 (stereo not drawn) | 89.2 |
| O=C(CCCc1ccc(-c2ccccc2F)cc1)Nc1ccc(O)cc1 | 104 |
| COc1cc2ncnc(Nc3ccc(Oc4ccccc4)cc3)c2cc1OC | 90 |
| O=C(O)c1ccc2c3c1cccc3c(=O)n1c3ccccc3nc21 | 99.5 |
